Experimental data from different studies.
Numbered parts are unrelated; each lists some results of a single study. Substitutions count along the parent as printed.
Sequence of UniProt Q9HC98 (whole entry, looked up): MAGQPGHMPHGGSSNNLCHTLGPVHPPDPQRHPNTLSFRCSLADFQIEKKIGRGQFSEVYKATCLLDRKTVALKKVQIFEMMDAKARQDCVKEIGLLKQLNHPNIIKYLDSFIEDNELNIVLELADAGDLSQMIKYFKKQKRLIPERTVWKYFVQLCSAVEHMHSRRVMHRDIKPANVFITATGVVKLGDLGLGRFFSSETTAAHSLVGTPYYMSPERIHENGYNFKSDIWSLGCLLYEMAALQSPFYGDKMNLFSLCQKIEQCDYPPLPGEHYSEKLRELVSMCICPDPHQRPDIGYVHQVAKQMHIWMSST
Sequence of UniProt P53667 (whole entry, looked up): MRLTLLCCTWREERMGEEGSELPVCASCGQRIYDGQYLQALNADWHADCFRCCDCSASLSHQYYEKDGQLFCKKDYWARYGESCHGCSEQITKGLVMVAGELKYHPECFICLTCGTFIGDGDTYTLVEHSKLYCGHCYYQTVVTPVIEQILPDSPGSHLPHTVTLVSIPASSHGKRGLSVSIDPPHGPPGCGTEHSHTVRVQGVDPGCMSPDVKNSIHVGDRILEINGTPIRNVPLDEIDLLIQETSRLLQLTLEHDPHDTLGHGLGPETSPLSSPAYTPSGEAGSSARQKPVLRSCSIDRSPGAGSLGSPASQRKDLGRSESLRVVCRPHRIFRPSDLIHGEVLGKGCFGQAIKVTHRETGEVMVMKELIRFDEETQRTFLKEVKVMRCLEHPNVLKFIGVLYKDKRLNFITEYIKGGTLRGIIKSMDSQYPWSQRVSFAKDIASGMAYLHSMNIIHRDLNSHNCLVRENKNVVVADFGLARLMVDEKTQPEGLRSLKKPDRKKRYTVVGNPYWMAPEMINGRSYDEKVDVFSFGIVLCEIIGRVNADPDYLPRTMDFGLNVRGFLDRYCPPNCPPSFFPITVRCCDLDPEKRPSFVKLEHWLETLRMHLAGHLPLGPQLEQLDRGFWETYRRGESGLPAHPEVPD
Sequence of UniProt P54762 (whole entry, looked up): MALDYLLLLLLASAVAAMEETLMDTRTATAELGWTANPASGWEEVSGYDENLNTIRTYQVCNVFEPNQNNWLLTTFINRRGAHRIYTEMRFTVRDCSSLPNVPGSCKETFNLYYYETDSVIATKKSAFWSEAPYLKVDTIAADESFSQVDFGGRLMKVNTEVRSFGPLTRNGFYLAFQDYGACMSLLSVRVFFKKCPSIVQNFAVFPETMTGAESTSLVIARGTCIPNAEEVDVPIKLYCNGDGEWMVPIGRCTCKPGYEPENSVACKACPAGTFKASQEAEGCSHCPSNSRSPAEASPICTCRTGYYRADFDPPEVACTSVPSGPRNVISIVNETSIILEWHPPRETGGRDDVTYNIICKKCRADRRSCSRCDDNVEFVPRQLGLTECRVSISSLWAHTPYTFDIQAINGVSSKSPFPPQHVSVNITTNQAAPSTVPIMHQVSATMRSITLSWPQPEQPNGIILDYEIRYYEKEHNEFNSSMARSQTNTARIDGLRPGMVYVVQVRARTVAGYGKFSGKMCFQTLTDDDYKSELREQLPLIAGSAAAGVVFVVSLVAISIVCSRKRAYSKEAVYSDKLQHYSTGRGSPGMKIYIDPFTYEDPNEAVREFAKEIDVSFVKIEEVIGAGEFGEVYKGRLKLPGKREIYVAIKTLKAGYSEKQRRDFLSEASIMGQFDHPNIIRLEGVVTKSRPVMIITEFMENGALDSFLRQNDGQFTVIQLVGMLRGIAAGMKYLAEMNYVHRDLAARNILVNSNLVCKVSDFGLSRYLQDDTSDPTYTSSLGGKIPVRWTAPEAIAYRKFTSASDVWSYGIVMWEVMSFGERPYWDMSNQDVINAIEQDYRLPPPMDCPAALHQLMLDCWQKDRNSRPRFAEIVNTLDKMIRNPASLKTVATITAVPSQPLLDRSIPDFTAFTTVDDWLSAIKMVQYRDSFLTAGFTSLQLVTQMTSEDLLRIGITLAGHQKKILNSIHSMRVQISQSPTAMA
Sequence of UniProt Q9BRS2 (whole entry, looked up): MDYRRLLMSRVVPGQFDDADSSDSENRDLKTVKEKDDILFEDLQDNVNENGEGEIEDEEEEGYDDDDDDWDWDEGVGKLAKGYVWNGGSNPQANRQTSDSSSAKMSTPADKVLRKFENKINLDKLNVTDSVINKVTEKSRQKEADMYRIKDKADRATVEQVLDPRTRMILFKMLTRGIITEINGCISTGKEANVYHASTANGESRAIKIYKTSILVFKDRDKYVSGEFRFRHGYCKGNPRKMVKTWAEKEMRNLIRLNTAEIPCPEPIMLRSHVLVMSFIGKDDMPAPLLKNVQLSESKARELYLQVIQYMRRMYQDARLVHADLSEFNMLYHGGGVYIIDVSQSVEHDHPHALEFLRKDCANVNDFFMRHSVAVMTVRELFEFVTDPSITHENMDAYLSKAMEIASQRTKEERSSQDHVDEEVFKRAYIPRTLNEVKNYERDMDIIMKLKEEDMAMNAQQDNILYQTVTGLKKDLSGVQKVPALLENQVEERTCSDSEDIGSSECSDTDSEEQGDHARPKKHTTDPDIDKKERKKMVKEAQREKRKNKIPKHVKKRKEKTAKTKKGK
Sequence of UniProt O15146 (whole entry, looked up): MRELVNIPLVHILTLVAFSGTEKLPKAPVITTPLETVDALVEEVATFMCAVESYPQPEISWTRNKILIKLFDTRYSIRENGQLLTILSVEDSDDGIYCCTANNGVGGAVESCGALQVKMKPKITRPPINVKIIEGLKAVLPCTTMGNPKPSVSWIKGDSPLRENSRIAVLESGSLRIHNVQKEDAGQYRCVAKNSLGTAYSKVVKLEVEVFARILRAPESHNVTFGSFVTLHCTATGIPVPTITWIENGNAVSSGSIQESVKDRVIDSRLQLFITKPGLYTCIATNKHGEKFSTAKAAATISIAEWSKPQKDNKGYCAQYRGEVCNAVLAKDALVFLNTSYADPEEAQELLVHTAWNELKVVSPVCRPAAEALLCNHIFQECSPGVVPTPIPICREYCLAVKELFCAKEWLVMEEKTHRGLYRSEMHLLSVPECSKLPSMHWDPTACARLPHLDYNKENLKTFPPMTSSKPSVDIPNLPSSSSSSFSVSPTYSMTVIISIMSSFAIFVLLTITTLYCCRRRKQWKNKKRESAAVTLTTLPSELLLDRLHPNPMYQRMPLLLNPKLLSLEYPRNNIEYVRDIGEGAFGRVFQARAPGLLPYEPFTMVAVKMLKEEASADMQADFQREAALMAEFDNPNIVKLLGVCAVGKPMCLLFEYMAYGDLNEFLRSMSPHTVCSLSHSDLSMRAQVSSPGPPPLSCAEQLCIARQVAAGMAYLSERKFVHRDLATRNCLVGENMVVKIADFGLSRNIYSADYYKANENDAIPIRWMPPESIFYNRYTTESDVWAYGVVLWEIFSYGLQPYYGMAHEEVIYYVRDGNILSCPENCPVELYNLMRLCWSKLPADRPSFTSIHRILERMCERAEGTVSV
Sequence of UniProt Q96D53 (whole entry, looked up): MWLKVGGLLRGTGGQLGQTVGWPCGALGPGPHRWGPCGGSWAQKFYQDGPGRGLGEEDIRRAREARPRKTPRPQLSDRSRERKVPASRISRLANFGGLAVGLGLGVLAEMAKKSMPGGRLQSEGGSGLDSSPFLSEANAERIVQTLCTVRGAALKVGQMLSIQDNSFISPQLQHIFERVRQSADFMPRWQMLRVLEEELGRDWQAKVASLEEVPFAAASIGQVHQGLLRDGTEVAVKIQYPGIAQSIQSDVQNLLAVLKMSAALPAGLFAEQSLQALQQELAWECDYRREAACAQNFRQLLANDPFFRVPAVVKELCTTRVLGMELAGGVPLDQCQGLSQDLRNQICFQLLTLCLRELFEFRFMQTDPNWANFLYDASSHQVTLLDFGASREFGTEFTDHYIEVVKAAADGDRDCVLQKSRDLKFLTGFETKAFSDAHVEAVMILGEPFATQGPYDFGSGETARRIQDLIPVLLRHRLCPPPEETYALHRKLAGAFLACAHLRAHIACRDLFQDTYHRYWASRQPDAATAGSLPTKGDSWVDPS
Sequence of UniProt Q8NEB9 (whole entry, looked up): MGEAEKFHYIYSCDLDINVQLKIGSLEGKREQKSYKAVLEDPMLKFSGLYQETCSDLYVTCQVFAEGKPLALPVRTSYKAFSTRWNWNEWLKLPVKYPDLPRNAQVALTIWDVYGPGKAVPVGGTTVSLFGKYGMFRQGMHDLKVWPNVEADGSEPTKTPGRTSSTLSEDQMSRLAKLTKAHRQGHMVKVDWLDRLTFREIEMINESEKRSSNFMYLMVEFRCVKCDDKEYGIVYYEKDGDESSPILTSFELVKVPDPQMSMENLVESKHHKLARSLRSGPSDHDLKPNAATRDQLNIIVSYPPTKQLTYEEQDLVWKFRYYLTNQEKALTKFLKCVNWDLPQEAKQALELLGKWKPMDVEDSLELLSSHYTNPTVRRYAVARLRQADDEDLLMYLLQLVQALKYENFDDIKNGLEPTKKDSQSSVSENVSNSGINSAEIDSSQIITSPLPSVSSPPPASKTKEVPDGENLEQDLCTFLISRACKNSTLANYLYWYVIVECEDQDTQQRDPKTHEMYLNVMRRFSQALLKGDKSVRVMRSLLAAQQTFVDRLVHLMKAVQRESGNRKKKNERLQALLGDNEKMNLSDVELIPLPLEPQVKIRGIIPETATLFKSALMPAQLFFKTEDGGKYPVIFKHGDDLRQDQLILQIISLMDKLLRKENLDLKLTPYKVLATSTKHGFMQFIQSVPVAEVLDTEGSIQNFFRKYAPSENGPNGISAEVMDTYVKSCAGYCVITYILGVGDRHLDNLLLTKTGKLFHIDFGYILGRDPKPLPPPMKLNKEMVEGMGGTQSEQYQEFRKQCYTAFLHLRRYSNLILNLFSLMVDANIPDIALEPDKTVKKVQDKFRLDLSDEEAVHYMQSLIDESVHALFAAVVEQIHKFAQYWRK

Block 1
SMILES: Cc1c[nH]c2nccc(Oc3c(F)cc(Nc4cc(Cl)nc(N)n4)cc3F)c12
Concentration: 0.1 µM
For COQ8B (Homo sapiens, UniProt Q96D53); cell-free assay, competition with immobilised ligand: remaining binding read 88%.
For RET (Homo sapiens, UniProt P07949); cell-free assay, competition with immobilised ligand: remaining binding read 97%.
For MAP3K11 (Homo sapiens, UniProt Q16584); cell-free assay, competition with immobilised ligand: remaining binding read 100%.
Ribosomal protein S6 kinase alpha-6, C-terminal kinase domain (RPS6KA6, Homo sapiens, UniProt Q9UK32); cell-free assay, competition with immobilised ligand — remaining binding: 99%.
For NEK6 (Homo sapiens, UniProt Q9HC98); cell-free assay, competition with immobilised ligand: remaining binding read 99%.
RIOK1 (Homo sapiens, UniProt Q9BRS2); cell-free assay, competition with immobilised ligand — remaining binding: 100%.
For NTRK1 (Homo sapiens, UniProt P04629); cell-free assay, competition with immobilised ligand: remaining binding read 81%.
MAP3K7 (Homo sapiens, UniProt O43318); cell-free assay, competition with immobilised ligand — remaining binding: 92%.
For CAMK2A (Homo sapiens, UniProt Q9UQM7); cell-free assay, competition with immobilised ligand: remaining binding read 70%.
It gave 87% for remaining binding (LIM domain kinase 1 (LIMK1, Homo sapiens, UniProt P53667); cell-free assay, competition with immobilised ligand).
The remaining binding was 68% (GRK7 (Homo sapiens, UniProt Q8WTQ7); cell-free assay, competition with immobilised ligand).
MAP3K19 (Homo sapiens, UniProt Q56UN5); cell-free assay, competition with immobilised ligand — remaining binding: 74%.
For PAK1 (Homo sapiens, UniProt Q13153); cell-free assay, competition with immobilised ligand: remaining binding read 100%.
TAOK1 (Homo sapiens, UniProt Q7L7X3); cell-free assay, competition with immobilised ligand — remaining binding: 84%.
For MUSK (Homo sapiens, UniProt O15146); cell-free assay, competition with immobilised ligand: remaining binding read 96%.
The remaining binding was 67% (PIK3C3 (Homo sapiens, UniProt Q8NEB9); cell-free assay, competition with immobilised ligand).
The remaining binding was 80% (CDK19 (Homo sapiens, UniProt Q9BWU1); competition binding).
For EPHB1 (Homo sapiens, UniProt P54762); cell-free assay, competition with immobilised ligand: remaining binding read 86%.
It gave 99% for remaining binding (ERBB2 (Homo sapiens, UniProt P04626); cell-free assay, competition with immobilised ligand).
For PHKG1 (Homo sapiens, UniProt Q16816); cell-free assay, competition with immobilised ligand: remaining binding read 100%.

Block 2
Target: Histone acetyltransferase KAT6A, winged helix 1, GST fusion (KAT6A, Homo sapiens, UniProt Q92794, residues 1-85)
Technique: protein binding microarray
Molecule type: double-stranded DNA, one strand shown
Sample: in vitro
Concentration: not given
Setting: 8-mer, flanks averaged, mean of 2 arrays, mostly near background
Reference: not given
Reading: higher = stronger binding
Target sequence (chain): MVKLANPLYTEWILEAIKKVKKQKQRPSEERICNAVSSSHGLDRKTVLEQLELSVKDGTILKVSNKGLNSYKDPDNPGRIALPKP
`ACACAAGG` has an E-score of -0.148.
The E-score of `CGGTCTGA` is reported as 0.14.
`CGCCACGC` has an E-score of 0.356.
`CGGACACG` gave an E-score of 0.274.
With `ATCCCCCA` the E-score was -0.203.
`ACAATTGG` gave an E-score of -0.229.
`ACCTAAAC` gave an E-score of -0.0288.
For `ACAATCAA`, the E-score was -0.18.

Block 3
Target: CCNB3, cyclin fold, Cln2 fusion (human)
Technique: yeast growth competition, sequencing
Sample: yeast
Setting: strong parent motif
Reference: not given
Reading: higher = stronger binding
Starting sequence: SCAPER docking peptide (human); SNARRSLNFGGST
`SNARRSLNFNGST [G10N]`: “normalised enrichment score” 0.972.
Under “normalised enrichment score”, `SNARRSLNGGGST [F9G]` is recorded as -0.00493.
`SNARYSLNFGGST [R5Y]`: “normalised enrichment score” 0.132.
For `SNARRSLNFGGSW [T13W]`, “normalised enrichment score” read 0.402.
For `SNARRRLNFGGST [S6R]`, “normalised enrichment score” read 1.93.
`SNARRSLVFGGST [N8V]` — result for “normalised enrichment score”: 1.12.
For `DNARRSLNFGGST [S1D]`, “normalised enrichment score” read 1.29.
For `SNARRSSNFGGST [L7S]`, “normalised enrichment score” read 0.521.

Block 4
Target: POU domain, class 6, transcription factor 1, POU and homeodomain (POU6F1, Homo sapiens, UniProt Q14863, residues 311-611)
Technique: protein-binding microarray
Molecule type: hairpin DNA
Sample: in vitro
Concentration: not given
Setting: whole hairpin DNA, median over replicate spots
Reference: not given
Reading: higher = stronger binding
Shared flanks, not repeated: GAGGCC … GGCCTCACACTCTT
Construct (chain): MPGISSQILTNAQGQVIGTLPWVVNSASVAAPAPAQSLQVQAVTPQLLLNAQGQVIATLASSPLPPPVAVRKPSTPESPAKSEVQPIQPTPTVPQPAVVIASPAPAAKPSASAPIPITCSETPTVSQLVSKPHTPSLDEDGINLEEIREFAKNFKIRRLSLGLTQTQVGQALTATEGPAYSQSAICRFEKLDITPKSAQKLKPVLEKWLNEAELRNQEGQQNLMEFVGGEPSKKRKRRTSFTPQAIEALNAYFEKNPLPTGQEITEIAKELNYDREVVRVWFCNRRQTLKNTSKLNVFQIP
`CTAATGAGGTGCCTCCTGGCACCTCATTAG` has a median fluorescence of 1490 a.u.
For `AGAATTAGGTGCCTCCTGGCACCTAATTCT`, the median fluorescence was 442 a.u.
The median fluorescence of `ATAATGACGTGCCTCCTGGCACGTCATTAT (5mC at 28)` is reported as 892 a.u.
`ATAATGCGGTGCCTCCTGGCACCGCATTAT (5mC at 29)` gave a median fluorescence of 555 a.u.
`CGAATTAGGTGCCTCCTGGCACCTAATTCG (5mC at 7)` has a median fluorescence of 459 a.u.
For `ATAATCGGGTGCCTCCTGGCACCCGATTAT`, the median fluorescence was 426 a.u.
`ACGATTAGGTGCCTCCTGGCACCTAATCGT (5mC at 8)` has a median fluorescence of 374 a.u.
For `CGAATGAGGTGCCTCCTGGCACCTCATTCG`, the median fluorescence was 394 a.u.

Mixed results
Under “patients with TEAE”, `CC(C)n1cnc(-c2ccc(F)cc2)c1-c1ncc(C(=O)Nc2ccc(N3CCN(C)CC3)cc2)[nH]1` is recorded as 0% (phase 2a trial; idiopathic pulmonary fibrosis patients; oral, 60 mg once daily, musculoskeletal disorders, grade 4).
`OC1=C2C(=Nc3ccccc3NC2c2cccnc2)CC(c2ccccc2)C1` (stereo not shown) has a remaining compound of 68.3% (human, microsomes or S9; 2 µM, 0.5 h).

Some of these lines once more (block 4):
`CGAATTAGGTGCCTCCTGGCACCTAATTCG (5mC at 7)` has a median fluorescence of 459 a.u.
`ACGATTAGGTGCCTCCTGGCACCTAATCGT (5mC at 8)` has a median fluorescence of 374 a.u.
`ATAATGCGGTGCCTCCTGGCACCGCATTAT (5mC at 29)` gave a median fluorescence of 555 a.u.
The median fluorescence of `ATAATGACGTGCCTCCTGGCACGTCATTAT (5mC at 28)` is reported as 892 a.u.
For `CGAATGAGGTGCCTCCTGGCACCTCATTCG`, the median fluorescence was 394 a.u.
For `AGAATTAGGTGCCTCCTGGCACCTAATTCT`, the median fluorescence was 442 a.u.
